Measured values gathered from unrelated publications.
A part holds a random share of what one study measured. Changes are numbered by the printed parent chain.

Study 1
Target: Ras GTPase-activating protein-binding protein 1, full length (G3BP1, Homo sapiens, UniProt Q13283)
UniProt Q13283, sequence (whole entry, looked up): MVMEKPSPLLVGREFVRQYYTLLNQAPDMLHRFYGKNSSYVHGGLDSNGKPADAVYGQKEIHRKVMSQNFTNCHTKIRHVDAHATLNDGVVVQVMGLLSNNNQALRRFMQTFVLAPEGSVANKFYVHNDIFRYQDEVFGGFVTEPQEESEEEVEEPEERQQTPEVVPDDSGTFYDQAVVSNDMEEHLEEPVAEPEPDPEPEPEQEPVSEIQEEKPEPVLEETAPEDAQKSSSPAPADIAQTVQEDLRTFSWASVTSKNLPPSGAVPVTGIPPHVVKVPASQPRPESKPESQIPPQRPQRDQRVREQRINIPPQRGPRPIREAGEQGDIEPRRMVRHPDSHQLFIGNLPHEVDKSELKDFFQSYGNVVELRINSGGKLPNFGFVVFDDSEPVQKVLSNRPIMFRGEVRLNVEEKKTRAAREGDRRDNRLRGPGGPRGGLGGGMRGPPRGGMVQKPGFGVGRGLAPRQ
Technique: RNA Bind-n-Seq
Molecule type: RNA
Matrix: in vitro
Concentration: 200 nM
Setting: whole 134-nt RNA, ends assumed
Together with: 150 mM LiCl
Baseline: input library
Direction: higher = stronger binding
Library: 7-deaza-guanosine replaces G
All sequences stand within: GGGAGUUCUACAGUCCGACGAUC … UGGAAUUCUCGGGUGUCAAGG
| Sequence | log2 enrichment |
| --- | --- |
| CACAGACAACACGCACCCACACAGACACAGAGGGAAGGAGUUGGGAUGGGGACAGGGUGCACAGCAGGGCGGGGUAGGACCCCAGCCCCU | -1.08 |
| UCAAGUCCUGUGCUACACAUCGUAUGUACCGAAUCGGGAGGGUUUGGGAAAGGGAAAGUAUUAUGUUACGCCGUUCGGAUCUGCACUUCC | 0.0166 |
| GCCACUGUUCACCAGUCCUACCCACACCAUGCCACACAGCUCCAUGCCCACCAGCCGCAGCCGGCUACCACGCCUACUGGAAGCCAGCCG | -0.0396 |
| GUCCUGUGCUACACAUCGUAUGUACCGAAUCGGGUUUUUGGGGUUUUUGGGGUUUUUGGAAAGUAUUAUGUUACGCCGUUCGGAUCUGCA | -0.111 |
| UGUCCUGCAGGGUCGGACCGAUACCUGGAGAGCCGCGAUGCCUCUCGACUGAGUGGCCGGGACCCCUCCUCAUGGACAGUCGAGGAUGUG | -3.52 |
| CAAGUCCUGUGCUACACAUCGUAUGUACCGAAUCGGGCCCCGGCCCCGGGCCCCGGAAAGUAUUAUGUUACGCCGUUCGGAUCUGCACUU | -1.73 |
| CUGUGCUACACAUCGUAUGUACCGAAUCGGGGCCCCCCCGGGGCCCCCCCGGCCCCCCCGGAAAGUAUUAUGUUACGCCGUUCGGAUCUG | 0.636 |
| CCUCAAGUCCUGUGCUACACAUCGUAUGUACCGAAUCGGGGUGGUGGGGUGGAAAGUAUUAUGUUACGCCGUUCGGAUCUGCACUUCCAG | -0.168 |
| UCCUGUGCUACACAUCGUAUGUACCGAAUCGGGGUUUGGGGUUUUUUUGGGGAAAGGGGAAAGUAUUAUGUUACGCCGUUCGGAUCUGCA | 0.465 |
| UGGGCAUUUUGGUGGAGACGAUGAGCACCAACGACACGAUCGUCAGUGGCACGCUGCCCCAGCGCAUGGCGUCCUGCCUGGAGGUGCUGG | -0.753 |

Study 2
Target: RNA binding protein fox-1 homolog 2, RRM domain, GST-SBP tag (RBFOX2, Homo sapiens, UniProt O43251-10, residues 100-194)
Technique: RNA Bind-n-Seq
Molecule type: RNA
Matrix: in vitro
Concentration: 365 nM
Setting: natural RNA segment, single round, ends assumed
Baseline: no-protein control
Direction: higher = stronger binding
All sequences stand within: GGGAGUUCUACAGUCCGACGAUC … UGGAAUUCUCGGGUGCCAA
Target sequence (chain): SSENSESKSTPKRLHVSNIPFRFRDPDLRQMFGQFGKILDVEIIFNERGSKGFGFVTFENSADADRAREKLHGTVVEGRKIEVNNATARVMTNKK
| Sequence | RBNS enrichment (R) |
| --- | --- |
| AUUGUACCAAAACAAGAACCACUUAAACAAUGCCUAGGGAAUGAUAAGGAGGAGGAAAAUCCCAGGUCCACAGCAAAGGACACCUAAGAGUGGGAGGCUGCAGCAGUAAG | 0.695 |
| UGUGGGUUUAUCCAAGAUGAGGAAGAUUUCACCUGCUGUUUAAUAGACUUGGGGCCAUGUGCCUCCCCACACAUGGGCAAGGACAGGUGGAAUGUCGGGACCACACUGUG | 0.398 |
| AGGUUAUUCUAAACUUUCUUUGUAACUAUUGUUAUAGACAAUGGUUUCCAAACCAGUGGUUUCUAUGUAGCUUUUCUAGUUCCUUGCUAUCUUCUCACCACUGGCUUGAG | 0.325 |
| AGCUAUGAAUGUAUUUGCUUCUAAAACCUCCCAAAGUGAAUCUAAUCUUAAAACUACAAGUUGUAAGUAUUCUGAAAUUGGGAAACAUUUAUUUUAAAUGCAAUCAGGUA | 0.393 |
| UCGCAGGGCAGGCUUGGUGCACUGGCUUCUCUCACAUCUUUCUUGCAAUUAUGAUACUCUGAGAUUUGCUGUUGUGCUUAAAGACAAAAGUCUGGACUCAGCCACAAACU | 0.586 |
| AAGUUUGACUCGAGAAAGACGACCCUCCAGGAUUUUCAUUUGGACGAGGACAGGACCGUGAGAGUCCCCAUGAUGUCAGAUCCUAAGGCCAUCUUACGAUACGGCUUGGA | 0.818 |
| CCCCCGCUUCCUCCUAGCCCUGUGGGCAGGGGUUGGAAACUUAGCACUUUAUAUUUAUACAGAACAUUCAGGAUAUGUCAAUAAAAUAUUGUUAUAUUUAAAAAACAACA | 0.328 |
| CCUUCCCUUCCCUUCCCAUCCGCCAUAUUUCUUCAGCCUUUCUUCUCGAUCACCCGUGUAUUCUUUGACCAGUAAAUGACCACACCUCAAUGAUGGUAAAACAGCAUCAU | 1.06 |

Study 3
Target: CCND1, cyclin fold, Cln2 fusion (human)
Technique: yeast growth competition, sequencing
Matrix: yeast
Setting: weak parent motif
Baseline: not given
Direction: higher = stronger binding
Starting sequence: BRCA2 docking peptide (human); PSIKRNLLNEFDR; partner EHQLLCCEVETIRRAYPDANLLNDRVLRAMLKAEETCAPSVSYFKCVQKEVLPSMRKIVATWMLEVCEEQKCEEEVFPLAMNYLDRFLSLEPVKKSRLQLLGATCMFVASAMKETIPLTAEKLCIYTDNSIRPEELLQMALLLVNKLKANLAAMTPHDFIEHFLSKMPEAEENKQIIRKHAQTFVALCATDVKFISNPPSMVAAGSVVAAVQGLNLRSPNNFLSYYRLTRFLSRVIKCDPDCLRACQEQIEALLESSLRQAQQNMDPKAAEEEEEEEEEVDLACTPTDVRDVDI
| Substitution | normalised enrichment score |
| --- | --- |
| PSIKRNLLNEFTR [D12T] | 0.0549 |
| PSIKRFLLNEFDR [N6F] | 0.827 |
| PSIKRNLANEFDR [L8A] | 0.203 |
| PSIKRNLLHEFDR [N9H] | 0.538 |
| PTIKRNLLNEFDR [S2T] | 0.519 |
| PSIKRNLLNEFDA [R13A] | 1.25 |
| SSIKRNLLNEFDR [P1S] | 1.12 |
| ESIKRNLLNEFDR [P1E] | 1.38 |
| PSIKRNLQNEFDR [L8Q] | 0.219 |
| PDIKRNLLNEFDR [S2D] | 1.06 |

Mixed results
| Molecule | target | assay | test system | setting | how to read | measurement | result |
| --- | --- | --- | --- | --- | --- | --- | --- |
| PhoQ, residues 284 288 289 292 302 303 SASVAL | PhoP, residues 12 14 15 18 19 AWHSL (Escherichia coli, UniProt P23836) | Sort-seq, measured: YFP reporter | E. coli | PhoQ-PhoP variant library, together with: 10 µM Mg2+ | baseline: high Mg2+ state, higher = stronger signaling | fold induction | 7.12 |
